Assay results gathered from unrelated publications.
Each numbered part is a random draw from the data of one study; scales do not carry over between parts.

Set 1 — method: universal PBM; molecule type: double-stranded DNA, one strand shown; medium: in vitro; tested at: 600 nM; reading: higher = stronger binding
Target: Sal-like protein 4, full length isoform A (SALL4, Homo sapiens, UniProt Q9UJQ4, residues 1-1053)
Chain of UniProt Q9UJQ4 (whole entry, looked up): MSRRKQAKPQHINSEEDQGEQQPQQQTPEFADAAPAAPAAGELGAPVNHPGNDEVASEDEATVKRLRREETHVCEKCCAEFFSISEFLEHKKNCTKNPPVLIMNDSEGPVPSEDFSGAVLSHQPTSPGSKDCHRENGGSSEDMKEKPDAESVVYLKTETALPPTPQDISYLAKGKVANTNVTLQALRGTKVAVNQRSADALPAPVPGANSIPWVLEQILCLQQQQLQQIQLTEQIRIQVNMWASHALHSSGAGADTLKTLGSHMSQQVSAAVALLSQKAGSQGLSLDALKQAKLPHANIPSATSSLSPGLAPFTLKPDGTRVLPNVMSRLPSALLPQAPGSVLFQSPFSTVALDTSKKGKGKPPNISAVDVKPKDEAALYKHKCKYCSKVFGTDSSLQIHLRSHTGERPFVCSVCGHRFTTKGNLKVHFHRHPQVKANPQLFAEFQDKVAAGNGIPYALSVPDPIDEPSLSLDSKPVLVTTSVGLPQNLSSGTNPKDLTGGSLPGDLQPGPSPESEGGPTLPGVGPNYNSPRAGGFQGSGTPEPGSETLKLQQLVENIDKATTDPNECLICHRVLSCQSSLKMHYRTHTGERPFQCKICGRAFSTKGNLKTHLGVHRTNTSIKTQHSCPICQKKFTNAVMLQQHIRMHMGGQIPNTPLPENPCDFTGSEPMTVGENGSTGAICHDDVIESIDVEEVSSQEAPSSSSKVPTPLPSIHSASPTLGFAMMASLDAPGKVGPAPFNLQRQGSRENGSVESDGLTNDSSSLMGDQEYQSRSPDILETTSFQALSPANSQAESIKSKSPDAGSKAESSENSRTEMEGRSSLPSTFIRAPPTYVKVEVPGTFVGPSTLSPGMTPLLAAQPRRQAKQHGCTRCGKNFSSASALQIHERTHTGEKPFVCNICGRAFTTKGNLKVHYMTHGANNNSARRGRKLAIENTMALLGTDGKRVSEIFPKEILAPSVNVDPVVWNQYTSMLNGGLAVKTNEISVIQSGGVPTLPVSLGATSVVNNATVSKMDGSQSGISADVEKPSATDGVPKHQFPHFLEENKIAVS
Notes: 8-mer, flanks averaged, mean of replicates
Sequence	E-score
AGTAGTAT	0.238
CTCTGCAG	-0.173
GCAAAAGA	0.00372
CCGTATAA	0.046
GCTTGCCC	-0.285
ATTCTACC	0.235
CTGAACAA	0.0979
GCTGAAGA	-0.0926
GTACGTCA	0.0489
AGTCGGCG	-0.153
GCCGGACA	-0.285
GACGTGGC	-0.274
GGATTAGA	0.0151
GAGTGTGA	0.105
CGCTGTTC	-0.189
ACCGCATC	-0.183
AGTACTAC	0.164
AATTGTCA	0.257
GATGTAAA	0.2
AGAAGCTC	-0.0958
AAAATTTC	0.2
CGCACTAG	-0.255
TAATTCCA	0.213
TATTCACA	0.238
AAGGGTCC	-0.253

Set 2 — method: RNA Bind-n-Seq; molecule type: RNA; medium: in vitro; tested at: 365 nM; relative to: no-protein control; reading: higher = stronger binding
Target: RNA binding protein fox-1 homolog 2, RRM domain, GST-SBP tag (RBFOX2, Homo sapiens, UniProt O43251-10, residues 100-194)
Notes: natural RNA segment, single round, ends assumed
Constant ends, left off below: GGGAGUUCUACAGUCCGACGAUC … UGGAAUUCUCGGGUGCCAA
Residues (chain): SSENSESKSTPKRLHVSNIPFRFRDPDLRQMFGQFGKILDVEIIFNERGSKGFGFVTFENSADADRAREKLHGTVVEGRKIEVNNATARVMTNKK
Sequence	RBNS enrichment (R)
UCCCUUUUUAAACUCCUGGAAACAUUUUUGUUACCAAAUAAAUCAUGUUUUAUGGUACUCAGCCAUCCAAAAGUGAAAGACCUAGCAUUUGAUUCUGUGCAGGACACAAA	0.763
CAGAAGUUUGGGAACUCAAAAGUGACAUCAGGAAAGUUAGGAAAAAGUCCACUGUCAACAUUAUCAGCUCUCCUCAUUUCGAGCUAUCUGCUAGUCACAGCUGAAUAGCU	0.472
CCACAAUUGUAGGAUUUUUUUUUCCAUGUACAUUCUUUGUAUAUGUUCAGAAGGGAUCAAAAUUGCCAUCUAACAGGUACCUUAAAGGAUUCCUGGGCAUCUACUUCCAC	0.314
CCUCUGCCCCGUCUCAUGAGGGGCCCGAGCAGAAGCAGGAUAGUUGCUCCGCCUCUGCUGGCACAUUUCCCCAGACCUGAGCUCCCCACCACCCCAGCUGCUCCCCUCCC	0.654
GGGCCAUGUGAUUGUUUUAUUUUGGAAUUGGUGUAUAUCAUGAAGCCUUGCUGAACUAAGUUUUGUGUGUAUAUAUUUAAAGAUCAGUGUUUAAAUAAAAAAAAAAAAAA	0.69
GAACAAAAGGAAAGGUCUUUUUUCACUGCUUAAAGUGGGGUCACUUUGAUACCUUUGCGGUCAUGUCUGUGUCUGAUGAGUGUAGAAUCUCUGGAUGUGCACUGUCAGUC	0.376
UUGUUUGAGGUAAAAGCCUUAAAAUUUAGCUCCCUAGCUCUUGAUUAGAAGCAAUUUGGAGUAAGUGUGUUUUGAUUUAGGCAGGGUAGCUUGGGAUACCUUUUUAAAAA	0.659
GCUUAGCUUCUCAAAGGCCUAGCAGAGCUUUGGCACCCCAAGAUCCUUUCUGUAGGCUAUUUCCUCUUGCCCAGCAGUGGAUGGAGCGUCCUUGCUAAAAAGGGUUCCAU	0.206
GUCUUCGUUUACGUCUCUGUCCACAUGUCAGUGUAUUAAAACCCCAAUGGGUUCCGUUUCUCCUUUUCCCCUCUGGAUUUUAAAUAAAUAUUUAAAACUGAGGCAAUGGA	0.49
CUGGUUGUAAAGAGUAAAACUGUAUCUUAGGAAACCAGUGUCACCUUUUUCACCUUUUAAUUUUAUAUUAUUUGUGUCAUACAUUUCCAGUAAUGGAAGUGUUAAUUUUA	0.302
CAAUUACAGCGUGUGUGCAUGGAUGUGUGUGGGGGGCGUGCCUCUCAGAAACGCGGCCAGAAGACAAGCAGGGAAGUGAAAGGUCCCAGGCACACACCCUGCCCAUUGCA	2.26
UAUUUAUUGCAUAUUUAUUGUUUGGAUGUCACCAUCAGAGACGAAGGGAAGGGUAGCCAGGGAGGGAGUCCAGCCCAGCUGCCUGCAGGAAGAUCUGGCUCAGUCUACUA	0.332

Set 3 — method: protein binding microarray; molecule type: double-stranded DNA, one strand shown; medium: in vitro; tested at: not given; relative to: not given; reading: higher = stronger binding
Target: Histone acetyltransferase KAT6A, winged helix 1, GST fusion (KAT6A, Homo sapiens, UniProt Q92794, residues 1-85)
Notes: 8-mer, flanks averaged, mean of 2 arrays, mostly near background
Residues (chain): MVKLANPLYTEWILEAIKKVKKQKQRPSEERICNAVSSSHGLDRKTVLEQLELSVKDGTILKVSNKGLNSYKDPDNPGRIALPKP
Sequence	E-score
CGATTATA	-0.029
CATACTAC	-0.0279
ATTACACA	-0.00895
CGTATATA	0.0429
AGCCCGAC	0.103
CACAACCG	-0.0216
ATCAGCAA	-0.171
CACGGTTC	-0.18
AACCGCTA	0.164
GGTACTAA	-0.0192
ACTAAGAC	-0.0468
GCTTCCGA	0.133
AGCCTCTG	-0.126
TATCCATA	-0.183
TAAATCAA	-0.209
ATGCCCGA	-0.065
ACGAATGG	-0.174
ATACACTG	-0.232
CCGGAGTC	0.19
GAGGCTCA	-0.00977
AAGATGTC	-0.0301
ATTAGACC	-0.0268
ATATACGG	0.193
CATTTGCG	0.116
ACACGTTG	-0.164

Set 4 — method: RNA Bind-n-Seq; molecule type: RNA; medium: in vitro; tested at: 200 nM; notes: whole 134-nt RNA, ends assumed; together with: 150 mM KCl; relative to: input library; reading: higher = stronger binding
Target: Ras GTPase-activating protein-binding protein 1, full length (G3BP1, Homo sapiens, UniProt Q13283)
Chain of UniProt Q13283 (whole entry, looked up): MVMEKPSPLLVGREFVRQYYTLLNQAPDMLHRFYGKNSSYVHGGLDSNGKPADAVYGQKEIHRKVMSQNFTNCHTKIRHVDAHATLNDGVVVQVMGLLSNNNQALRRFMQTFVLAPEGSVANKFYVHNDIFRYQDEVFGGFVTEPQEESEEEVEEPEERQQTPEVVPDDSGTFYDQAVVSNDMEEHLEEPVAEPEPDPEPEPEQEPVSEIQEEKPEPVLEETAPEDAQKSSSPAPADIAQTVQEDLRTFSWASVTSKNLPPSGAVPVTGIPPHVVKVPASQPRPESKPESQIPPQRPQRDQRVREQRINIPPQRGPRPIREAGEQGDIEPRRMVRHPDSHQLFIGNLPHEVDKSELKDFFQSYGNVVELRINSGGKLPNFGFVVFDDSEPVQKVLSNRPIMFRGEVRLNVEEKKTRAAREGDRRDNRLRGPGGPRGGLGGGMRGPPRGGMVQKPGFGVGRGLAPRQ
Constant ends, left off below: GGGAGUUCUACAGUCCGACGAUC … UGGAAUUCUCGGGUGUCAAGG
Sequence	log2 enrichment
CACAGUCAACACGCACCCACACAGACACAGAGGGAAGGGGUUGGGAUGGGGACAGGGUGCACAGCAGGGCGGGGUAGGACCCCAGCCCCU	1.69
UGGGAGGUGGAUUUUGUUUAUUUUUUUAGCUCAUUUCCAGGGGUGGGAAUUUUUUUUUAAUAUGUGUCAUGAAUAAAGUGGUUUUUGAAA	0.0989
AGUCCUGUGCUACACAUCGUAUGUACCGAAUCGGGGUGGGGAAAGGGGAAAAAGGGGAAAGUAUUAUGUUACGCCGUUCGGAUCUGCACU	0.472
UGGGAGGUGGAUUUUGUUUAUUUUUUUAGCUCAUUUCCAGGGGUGGGAAUUUUUUUUUCAUAUGUGUCAUGAAUAAAGUUGUUUUUGAAA	0.0604
ACCAUGCAGGUGGGCAUCUUUGGGAAGUGGGGCAAGGGGGGGAUAGGGAGGGGGGUAACACUUUGAAAACAGGUGGUCCCAGGUCGUUUC	1.32
UCCUGUGCUACACAUCGUAUGUACCGAAUCGGGGAAAAAAAGGGGAAAAAGGGGUGGGGAAAGUAUUAUGUUACGCCGUUCGGAUCUGCA	0.56
GUCCUGUGCUACACAUCGUAUGUACCGAAUCGGGAGGGUUUUUUUGGGUUUUUUUGGGAAAGUAUUAUGUUACGCCGUUCGGAUCUGCAC	-0.404
UCAAGUCCUGUGCUACACAUCGUAUGUACCGAAUCGGGCCCGGCCCGGCCCGGGAAAGUAUUAUGUUACGCCGUUCGGAUCUGCACUUCC	-0.666
UUAAAGUAGAGGAACAAAAAGAAGAACAGAAGGAGUUAGAGAAAUCUGAAAAAGAAGAGGAUGAGGAUGAUGAUAGGAAAUCUGAAGACG	0.67
CACAGACAACACGCACCCACACAGACACAGAGGGAAGGGGUUGGGAUAAAGACAGGGUGCACAGCAGGGCGGGGUAGGACCCCAGCCCCU	1.05
UGGGAGGUGGAUUUUGUUUAUUUUUUUAGCUCAUUUCCAGGGGUGGGAAUUUUUUUUUAAUAUGUGUCAUGAAUAAGGUUGUUUUUGAAA	0.42
GUCCUGUGCUACACAUCGUAUGUACCGAAUCGGGGAAAAAGGAAAAAGGGGAAAAAGGGAAAGUAUUAUGUUACGCCGUUCGGAUCUGCA	-0.0899
AAGUCCUGUGCUACACAUCGUAUGUACCGAAUCGGUUUUGGUUUUGGGUUUUGGGGAAAGUAUUAUGUUACGCCGUUCGGAUCUGCACUU	-1.01
ACCAUGCAGGUGGGCAUCUUUGGGUAGUGGGGCAAGGGGGGGAUAGGGAGGGGGGUAACACUUUGGGAACAGGUGGUCCCAGGUCGUUUC	1.24

Set 5 — method: protein-binding microarray; molecule type: double-stranded DNA, one strand shown; medium: in vitro; tested at: 250 nM; notes: 60-bp whole probe; together with: salmon DNA 0.4 mg/ml; relative to: random background probes; reading: higher = stronger binding; constant ends, left off below: GCCTAGCAC … GTCTTGATTCGCTTGACGCTGCTG
Target: Interferon regulatory factor 7, full length, phosphomimetic (IRF7, Homo sapiens, UniProt Q92985, residues 1-503, S101K/S471D/S472D/S475D/S476D/S477D/S483D/S484D/S487D)
Target sequence (chain): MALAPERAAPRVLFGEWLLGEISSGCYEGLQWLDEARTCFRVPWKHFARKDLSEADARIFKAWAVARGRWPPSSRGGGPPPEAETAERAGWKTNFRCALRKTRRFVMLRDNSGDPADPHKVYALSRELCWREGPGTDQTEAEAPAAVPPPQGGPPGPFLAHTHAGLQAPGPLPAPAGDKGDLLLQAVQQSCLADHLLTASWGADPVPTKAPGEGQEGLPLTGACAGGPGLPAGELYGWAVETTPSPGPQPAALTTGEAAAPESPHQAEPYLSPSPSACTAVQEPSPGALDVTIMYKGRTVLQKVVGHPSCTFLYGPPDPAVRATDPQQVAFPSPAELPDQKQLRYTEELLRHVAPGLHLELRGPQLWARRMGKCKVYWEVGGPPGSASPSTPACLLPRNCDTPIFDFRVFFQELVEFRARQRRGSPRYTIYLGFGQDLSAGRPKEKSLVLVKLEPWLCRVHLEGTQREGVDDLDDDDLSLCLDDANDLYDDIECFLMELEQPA
Sequence	log fluorescence [z-score]
GACGATTCCACTTTCGAGACGTGCTAG	1.64
GACGGTATCGTGTTTCGGGACGTGCTA	1.65
TTAGGTCTCGGACGGGGTTAGTGCTAG	0.187
TCATCTTTCCCTGCCCCATGGTGCTAG	1.54
TTACGACTGGACACTGGGTTAGTGCTA	-0.456
TTAGGTTGCGGGACTGGGTTAGTGCTA	-0.584
TTAGCACTGAGTATCGATTAGTGCTAG	0.0408
TCAGATTTCAGTATCGATTAGTGCTAG	1.52
TTAGAACTGAGCTTCGATTAGTGCTAG	-0.0919
TCAACATTGCACAATCTTACTGTGCTA	-0.274
TCATCTTTACTGCTCCAACTGTGCTAG	0.46
TTCGATTTCGGGTATCGATTAGTGCTA	2.15
GACGAACGGGGGTTTCGAGACGTGCTA	2.92
GACGGACTGGACTAACGGGACGTGCTA	-0.739
TCAGGTATCGGGTTTCGGTTAGTGCTA	7.38
GACTGACTGGGGTTTCGGGACGTGCTA	1.12
TCATGCATGTTTTTGACACTGTGCTAG	0.058
TTAGGACTTCTTATCCTTTAGTGCTAG	-0.0388
GACGGACAGCTACTGCTGACGTGCTAG	-0.557
GACGGTATCGGTATCGGGAGGTGCTAG	1.13
TCAACTTTCCCCTTCCTACTGTGCTAG	1.57
TTAGGACTGGGGCATCGGTTAGTGCTA	-0.472

Excerpt of the above (set 1):
Sequence	E-score
TAATTCCA	0.213
TATTCACA	0.238
GCAAAAGA	0.00372
GATGTAAA	0.2
CTGAACAA	0.0979
AATTGTCA	0.257
ATTCTACC	0.235
GAGTGTGA	0.105
CGCTGTTC	-0.189
AGTCGGCG	-0.153
